Results of several laboratories.
A part holds a random share of what one study measured. Substitutions count along the parent as printed.

Block 1
Target: ABI1, truncated, D143A, DHFR fusion (Arabidopsis thaliana, UniProt P49597)
Method: DHFR PCA, dose-response
Medium: yeast
Notes: Hill fit, mean, not affinity
With: (+)-ABA, dose series
Direction: lower = more sensitive
Starting sequence: PYL1, truncated, DHFR fusion (Arabidopsis thaliana, UniProt Q8VZS8); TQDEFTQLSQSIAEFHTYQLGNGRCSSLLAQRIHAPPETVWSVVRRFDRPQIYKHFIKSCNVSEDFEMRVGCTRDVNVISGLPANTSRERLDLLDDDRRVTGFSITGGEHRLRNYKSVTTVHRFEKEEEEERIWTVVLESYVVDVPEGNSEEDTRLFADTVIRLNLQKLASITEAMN
| Change | ABA EC50 [µM] |
| --- | --- |
| L28M | 1.59 |
| I52A | 2.85 |
| T73I | 1.49 |
| E147Q | 2.76 |
| V70T | 8.69 |
| E130T | 2.37 |
| V142C | 2.54 |
| E14T | 4.25 |
| F124T | 18.4 |
| L164S | 2.24 |
| E128W | 5.62 |
| E38L | 73.7 |
| R49Q | 1.63 |
| E4G | 4.24 |
| D96F | 433 |
| L138C | 32.7 |
| E139H | 14.7 |
| R45I | 352 |
| L28A | 72.8 |
| E64C | 3.37 |
| L28T | 14.6 |
| S171L | 3.27 |
| L166Q | 122 |
| D92I | 63.2 |
| S171E | 0.733 |

Block 2
Target: RNA binding protein fox-1 homolog 2, RRM domain, GST-SBP tag (RBFOX2, Homo sapiens, UniProt O43251-10, residues 100-194)
Method: RNA Bind-n-Seq
Form: RNA
Medium: in vitro
Concentration: 365 nM
Notes: natural RNA segment, single round, ends assumed
Baseline: no-protein control
Direction: higher = stronger binding
Shared flanks, not repeated: GGGAGUUCUACAGUCCGACGAUC … UGGAAUUCUCGGGUGCCAA
Construct (chain): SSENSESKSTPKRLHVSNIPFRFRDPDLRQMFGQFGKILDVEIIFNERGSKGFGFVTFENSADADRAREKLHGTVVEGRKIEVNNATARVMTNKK
| Oligonucleotide | RBNS enrichment (R) |
| --- | --- |
| GCUCUCCACGUGUGGAAGCGCAUCUGCUUUCCUUGCUGUCUGUGCAAAUGCUGAACAAGGAGACAGACACACACUAAUCCUCAGCACAGAGCUGGAAAGCUCAUUUCUGG | 0.668 |
| GACCAAACACGCUUUCAGCAGCUGCCUGCUCUGGACUUUGAAAGAGGUCAGGUCUUGCCCUAAGCUCAAAACAAGUGAGAGGUGUCCUGACCUAGCUCAUAGGGCAAAUG | 0.24 |
| GAGCCUCGGUUUGCCCAGGCCCCUGGGUGCCCCUGCCCACCUACACCUUGAGGGGCUGACCUGUGUUAGGCAGUGGCCAUGGCCCAGUGUGAUGUUGUGUUGCUCACACA | 0.542 |
| AAGAGACCCAGCGGCAGAGCACCUUUUACAUUUUGGACCGUUCAUGAAUGGGCAAUGUUGUGUUGAUACGCAGCCGAGUUCUACGUUAUGUGCUGUGACUGUGCAGCUGG | 0.755 |
| AGCUGAGGCACUUGUCCGUUCGUCUUACCAUCUAACCAAACAAAAGACAAAGAAAUUGUCCUCCAACUCAGCUUUUCCCCCCCUGUUUGGGUGAAAGUGGUUCUAGAACC | 0.259 |
| AAUCUUACGUGCCCGUAAAGUUGGGAUGUUGAAUUGGCUCUUCUUUGUUCUGGCAGUGAGUCAAGUGUCCAGCAUUUUUUCAUAAGUGUUUUUUAAAAUUGUUCUCCAGC | 0.409 |
| CCUCAGUGGCCACAUCAUGCCCACUCCCACUCCAUCCUGUCCCCAAGGACUCACAUACAGUGCCUGGAGAAAGCCAAAGACCUUUAUUUCUUCCUGCCUCCCCGUGGGAA | 0.385 |
| AUAAGGAUUAUACAGUAUUAAUUAAUUAUAAGGCCCAAAGUUUGUUUUGGCAAAUAAAGUAUUAUUCUCUAUCAUCAUCUUUUGAAUUCCUGUCCCUAGUAUGUUCUUUC | 0.5 |
| GCAGUGUCCAGAAGCGGCCUGUGCGUUCCCUUCAGUACUGCAGCGCCACCCAGUGGAAGGACACUCUUGGCUCGUUUGGGCUCAAGGCACCGCAGCCUGUCAGCCAACAU | 0.638 |
| GUCUCCGAAUCUGAGAAUUCGAAAGAAAGCUAUGCUCAGUCUCUGUACAUGCUGAACUCCAAAUUCUUCCAUAUCAACUUCAAGCCCCAAGCCUCCAAUGUAUUACCUAC | 3.72 |
| UACUUAGAGUUUCUGUUUGAUUCUUUUUUAAUAAACUACUCUUUGAUUUAAUUGUUUGGUGUAAGCAUUUUUACUAGUUCUUUAUUUCUUACACAUCUUUCUUGCUGUUG | 0.986 |
| AAAGUAAACAGGCCAGAUGAACCUGAGGGAUAAUAGAUUACAAAGAAUAUAUUUUUGUUAUGGCUGGUUACCCCAGCUCUUUUUCCCCUUGUGUGUGUGGUUCAAGUGUG | 0.473 |

Block 3
Target: Sal-like protein 4, full length isoform B (SALL4, Homo sapiens, UniProt Q9UJQ4-2, residues 1-616)
Method: universal PBM
Form: double-stranded DNA, one strand shown
Medium: in vitro
Concentration: not given
Notes: 8-mer, flanks averaged, mean of replicates
Direction: higher = stronger binding
Residues (chain): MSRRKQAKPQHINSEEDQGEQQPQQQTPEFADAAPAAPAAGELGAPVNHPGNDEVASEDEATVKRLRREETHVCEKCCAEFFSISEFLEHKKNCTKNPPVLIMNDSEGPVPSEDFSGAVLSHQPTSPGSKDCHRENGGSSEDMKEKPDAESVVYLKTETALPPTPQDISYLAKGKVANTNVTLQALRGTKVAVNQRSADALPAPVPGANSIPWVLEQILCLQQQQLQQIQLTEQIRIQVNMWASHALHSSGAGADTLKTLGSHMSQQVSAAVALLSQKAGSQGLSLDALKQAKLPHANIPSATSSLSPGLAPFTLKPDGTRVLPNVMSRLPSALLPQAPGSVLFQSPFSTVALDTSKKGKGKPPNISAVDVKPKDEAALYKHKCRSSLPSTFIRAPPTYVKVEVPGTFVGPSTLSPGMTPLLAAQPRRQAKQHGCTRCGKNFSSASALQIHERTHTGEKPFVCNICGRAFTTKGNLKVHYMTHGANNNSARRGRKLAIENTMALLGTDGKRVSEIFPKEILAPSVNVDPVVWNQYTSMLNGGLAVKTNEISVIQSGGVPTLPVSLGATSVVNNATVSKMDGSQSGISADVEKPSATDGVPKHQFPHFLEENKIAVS
| Oligonucleotide | E-score |
| --- | --- |
| CAACGTGA | -0.0781 |
| CGAGGCAA | -0.0996 |
| ACAATAGT | 0.17 |
| CACGCGAG | -0.241 |
| CACCACAC | -0.0416 |
| AGTTGGAT | 0.179 |
| AATCTTAG | 0.0536 |
| ACCTTTTG | -0.119 |
| AAGTTGGG | -0.152 |
| CGACACTA | -0.15 |
| CAATTGAA | 0.0707 |
| ATGCTGTA | 0.128 |
| AGGCTAAC | -0.0875 |
| GAACCTCC | -0.238 |
| ACATGAGG | 0.0405 |
| CAATCGCG | -0.125 |
| GGAATCTA | 0.0858 |
| AAGGGCAC | -0.187 |
| CTTGCCTC | -0.114 |
| GGAAAGAC | -0.126 |
| TCCATTAA | 0.277 |
| CCGCCGCG | -0.345 |
| GATCAGGA | -0.192 |
| ATGGTTCC | -0.046 |

Block 4
Target: PABPC1L2, full length, GST fusion (mouse, UniProt A0ABA7IW68)
Method: RNAcompete
Form: RNA
Medium: in vitro
Concentration: 20 nM
Notes: 7-mer, probes averaged, single round
Baseline: mean of 7-mers
Direction: higher = stronger binding
Target sequence (chain): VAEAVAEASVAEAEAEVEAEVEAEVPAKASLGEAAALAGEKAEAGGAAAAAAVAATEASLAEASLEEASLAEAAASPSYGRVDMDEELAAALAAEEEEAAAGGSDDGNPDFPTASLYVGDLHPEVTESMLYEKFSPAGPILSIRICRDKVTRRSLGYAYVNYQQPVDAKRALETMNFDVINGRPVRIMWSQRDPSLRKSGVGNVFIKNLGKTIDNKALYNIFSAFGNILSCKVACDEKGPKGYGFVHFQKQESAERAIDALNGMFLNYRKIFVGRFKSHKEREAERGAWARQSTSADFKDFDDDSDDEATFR
| Oligonucleotide | 7-mer Z-score |
| --- | --- |
| UAUUUCA | -0.175 |
| GAGCAGA | 0.111 |
| UAUACAG | 0.00979 |
| CUAACGA | -0.0953 |
| UAAGGCG | 0.0352 |
| AAUUUAG | 0.671 |
| UAGUUAG | -0.168 |
| CUAUACC | -0.255 |
| CAACGAA | 0.233 |
| CGAACAC | -0.079 |
| UUGCUGG | -0.222 |
| GGACAUA | 0.242 |
| CACUACC | -0.284 |
| CAGCUUC | -0.277 |
| ACACCGC | -0.11 |
| AACCAAU | 0.274 |
| CUUCCUC | -0.47 |
| UCUUGGA | -0.2 |
| UGGAAUA | -0.00652 |
| AACAUGU | 0.505 |
| GCGGGCC | -0.171 |
| UCCACUC | -0.291 |

Block 5
Target: CCND3, cyclin fold, Cln2 fusion (human)
Method: yeast growth competition, sequencing
Medium: yeast
Notes: weak parent motif
Baseline: not given
Direction: higher = stronger binding
Starting sequence: WEE1 docking peptide (human); HKTFRKLRLFDTP; partner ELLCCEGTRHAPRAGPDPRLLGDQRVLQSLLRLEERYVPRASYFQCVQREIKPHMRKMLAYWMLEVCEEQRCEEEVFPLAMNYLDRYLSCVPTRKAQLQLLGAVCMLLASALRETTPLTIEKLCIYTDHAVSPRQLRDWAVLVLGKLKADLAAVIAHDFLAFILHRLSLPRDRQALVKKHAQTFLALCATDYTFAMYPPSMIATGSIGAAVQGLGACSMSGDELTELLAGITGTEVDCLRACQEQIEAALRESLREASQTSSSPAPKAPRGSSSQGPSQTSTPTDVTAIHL
| Change | normalised enrichment score |
| --- | --- |
| HKTFCKLRLFDTP [R5C] | 0.00388 |
| HDTFRKLRLFDTP [K2D] | 0.156 |
| HKTFHKLRLFDTP [R5H] | 0.287 |
| TKTFRKLRLFDTP [H1T] | 0.221 |
| HKTFRKLRLFDFP [T12F] | 0.164 |
| HKTFRKLRLFDTS [P13S] | 0.0555 |
| HKTFRKMRLFDTP [L7M] | 0.0958 |
| HKTFRKLRLFTTP [D11T] | 0.0605 |
| HKTFRKLRLFDTC [P13C] | 0.148 |
| HKTFRKLRLCDTP [F10C] | 0.191 |
| HKYFRKLRLFDTP [T3Y] | -0.0427 |
| HKTFRKLRLFWTP [D11W] | 0.126 |
| DKTFRKLRLFDTP [H1D] | 0.131 |
| HKTFRKLRLFITP [D11I] | 0.183 |
| HKTFRKLRLFDTW [P13W] | 0.129 |
| HKTFRKLRLHDTP [F10H] | 0.086 |
| NKTFRKLRLFDTP [H1N] | 0.142 |

Block 6
Target: Prothrombin, mature alpha-thrombin (F2, Homo sapiens, UniProt P00734)
Method: aptamer microarray, sandwich
Form: DNA with 2'F-ANA
Medium: in vitro
Concentration: 200 nM
Notes: whole 15-mer aptamer, many near background
With: Cy3 exosite-II aptamer, 400 nM
Direction: higher = stronger binding
Oligonucleotide: GGTTGGTGTGGTTGG
| Modification | mean fluorescence intensity [a.u.] |
| --- | --- |
| 2'F-ANA at 1 2 3 5 7 8 10 13 | 45.9 |
| 2'F-ANA at 3 4 8 9 10 11 14 15 | 177 |
| 2'F-ANA at 2 3 5 7 8 9 10 13 15 | 55.3 |
| 2'F-ANA at 9 11 12 13 | 653 |
| 2'F-ANA at 4 6 7 8 10 11 12 15 | 93.1 |
| 2'F-ANA at 4 8 9 11 13 15 | 187 |
| 2'F-ANA at 1 2 3 7 9 10 11 12 15 | 79.6 |
| 2'F-ANA at 1 3 5 6 8 10 12 13 14 | 47.3 |
| 2'F-ANA at 1 2 4 5 13 14 | 68.5 |
| 2'F-ANA at 1 2 3 4 6 7 8 | 198 |
| 2'F-ANA at 2 5 7 8 11 14 | 56.1 |
| 2'F-ANA at 3 6 7 8 10 | 561 |
| 2'F-ANA at 3 5 6 8 11 12 | 204 |
| 2'F-ANA at 3 4 6 7 8 9 10 11 14 | 169 |
| 2'F-ANA at 1 2 3 6 7 13 14 | 136 |
| 2'F-ANA at 3 4 7 8 9 10 11 12 13 15 | 263 |
| 2'F-ANA at 2 3 7 8 9 10 12 13 | 372 |
| 2'F-ANA at 1 4 5 11 12 13 | 68.7 |

A few entries again (block 4):
| Oligonucleotide | 7-mer Z-score |
| --- | --- |
| GAGCAGA | 0.111 |
| UAUACAG | 0.00979 |
| CUAACGA | -0.0953 |
| UAAGGCG | 0.0352 |
| AAUUUAG | 0.671 |
| UAGUUAG | -0.168 |
| CUAUACC | -0.255 |
| CAACGAA | 0.233 |
| CGAACAC | -0.079 |
| UUGCUGG | -0.222 |
| GGACAUA | 0.242 |
| CACUACC | -0.284 |
| CAGCUUC | -0.277 |
| ACACCGC | -0.11 |
